# Published values pooled from the literature.
# A part holds a random share of what one study measured.

# Set 1 — technique: aptamer microarray, sandwich; molecule type: DNA with 2'F-ANA; sample: in vitro; tested at: 200 nM; together with: Cy3 exosite-II aptamer, 400 nM; reading: higher = stronger binding; oligonucleotide: GGTTGGTGTGGTTGG
# Target: Prothrombin, mature alpha-thrombin (F2, Homo sapiens, UniProt P00734)
# Setting: whole 15-mer aptamer, many near background
Modification,mean fluorescence intensity
2'F-ANA at 1 2 4 5 6 9 10 13 14 15,45.3 a.u.
2'F-ANA at 1 2 3 7 8 10 14,54.1 a.u.
2'F-ANA at 1 7 8 9 10 11 12 13 15,66.7 a.u.
2'F-ANA at 1 2 6 8 10 11 12 14,48.1 a.u.
2'F-ANA at 1 2 5 8 9 12 13 15,80.2 a.u.
2'F-ANA at 3 4 7 10 11 14 15,197 a.u.

# Set 2 — technique: universal PBM; molecule type: double-stranded DNA, one strand shown; sample: in vitro; tested at: not given; reading: higher = stronger binding
# Target: Sal-like protein 4, full length isoform B (SALL4, Homo sapiens, UniProt Q9UJQ4-2, residues 1-616)
# Setting: 8-mer, flanks averaged, mean of replicates
Oligonucleotide,E-score
CTCGTTGC,-0.0583
AGGTGTAT,0.155
CCCTAGGA,-0.134
TTTATAAA,0.409
CACATAAA,0.332
CCCCGTGC,-0.322
ATCCTTTC,0.196
CGTTAGTC,0.028

# Set 3 — technique: protein binding microarray; molecule type: double-stranded DNA, one strand shown; sample: in vitro; tested at: not given; reference: not given; reading: higher = stronger binding
# Target: Histone acetyltransferase KAT6A, winged helix 1, GST fusion (KAT6A, Homo sapiens, UniProt Q92794, residues 1-85)
# Setting: 8-mer, flanks averaged, mean of 2 arrays, mostly near background
# Construct (chain): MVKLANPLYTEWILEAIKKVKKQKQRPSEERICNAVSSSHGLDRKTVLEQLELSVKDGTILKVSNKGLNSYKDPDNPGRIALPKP
Oligonucleotide,E-score
AAAGATAC,-0.0676
GGGTGCGA,0.18
CGGCGGAA,0.439
AGGCCAAT,-0.234
CTGGTGTA,-0.147
AGGACACT,-0.266
GAACCTCC,-0.0193

# Further values, each from its own experiment
Molecule,target,test,system,setting,scale,quantity,value
"PhoQ, residues 284 288 289 292 302 303 WSHMKI","PhoP, residues 12 14 15 18 19 QQAYL (Escherichia coli, UniProt P23836)","Sort-seq, refers to: YFP reporter",E. coli,"PhoQ-PhoP variant library, together with: 10 µM Mg2+","reference: high Mg2+ state, higher = stronger signaling",fold induction,13.5

# Repeated from above (set 2):
Oligonucleotide,E-score
CTCGTTGC,-0.0583
CACATAAA,0.332
